Measured values gathered from unrelated publications.
Lines come from different studies, so protocols differ. ± marks the error that the study gave.

For Oc1ccc2ccc3c4ccccc4cc4ccc1c2c43, the half-life was 482 ± 672 min (UPLC-AMS; human, plasma; oral, 100 ng of [14C]-BaP).
CC[C@H](C)[C@H](NC(=O)[C@H](CCCNC(=N)N)NC(=O)[C@H](CC(C)C)NC(=O)[C@@H](N)Cc1ccccc1)C(=O)N[C@@H](CCCNC(=N)N)C(=O)N1CCC[C@H]1C(=O)N[C@@H](CCCCN)C(=O)O has a half-life of 42 min (rat plasma; no protease inhibitor).
The half-life of CC(C)C[C@H](NC(=O)[C@H](Cc1cccc2ccccc12)NC(=O)[C@H](CNC(=O)c1ccc(F)nc1)NC(=O)[C@H](CO)NC(=O)C1CCNCC1)C(=O)N[C@H](C(=O)N1CCC[C@H]1C(=O)N[C@H](C(N)=O)[C@@H](C)O)[C@@H](C)O is reported as > 1440 min (chemical stability; male human, serum; 1 mM, pH 7.4).
For COc1ccc(C[C@@H]2NC(=O)[C@H]([C@@H](C)O)NC(=O)[C@@H]3[C@@H]4CCN3C(=O)[C@@H]3Cc5cn(c6ccc(F)cc56)CCCCCCN(Cc5ccc(cc5)CCNC(=O)[C@]5(C)CCCN5C2=O)C(=O)CCC(=O)N[C@@H](C)C(=O)N[C@H](CNC(=O)CCCCC[N+](C)(C)C)C(=O)N[C@@H](Cc2cccc(c2)CNC(=O)CO4)C(=O)N3)cc1, the half-life was 4890 min (healthy fasted humans, plasma; oral, 100 mg single dose, geometric mean, together with: Labrasol 1800 mg).
CC(C)C[C@H](NC(=O)[C@H](Cc1cccc2ccccc12)NC(=O)[C@H](CNC(=O)c1ccc(F)nc1)NC(=O)[C@H](CO)NC(=O)C1CCNCC1)C(=O)N[C@@H](CC(N)=O)C(=O)N1CCC[C@H]1C(=O)N[C@H](C(N)=O)[C@@H](C)O has a half-life of > 1440 min (chemical stability; male human, serum; 1 mM, pH 7.4).
CCCCCOc1ccc(-c2cc(-c3ccc(C(=O)N[C@H]4C[C@@H](O)[C@@H](O)NC(=O)[C@@H]5[C@@H](O)[C@@H](C)CN5C(=O)[C@H]([C@H](O)CC(N)=O)NC(=O)[C@H]([C@H](O)[C@@H](O)c5ccc(O)c(OS(=O)(=O)O)c5)NC(=O)[C@@H]5C[C@@H](O)CN5C(=O)[C@H]([C@@H](C)O)NC4=O)cc3)no2)cc1 has a half-life of 660 min (young infants, plasma; intravenous, 7 and 10 mg/kg/day pooled, day 4, mean, repeat dosing).
For CCCCCCCCCCCCCCCC(=O)NCCCC[C@H](NC(=O)[C@H](CCC(=O)O)NC(=O)[C@H](CCC(=O)O)NC(=O)[C@H](Cc1ccc(O)cc1)NC(=O)[C@H](CCC(=O)O)NC(=O)CCCCCNC(=S)Nc1ccc2c(c1)C(=O)OC21c2ccc(O)cc2Oc2cc(O)ccc21)C(=O)N[C@@H](Cc1ccc(O)cc1)C(=O)N[C@@H](CCC(=O)O)C(=O)NCC(=O)NCC(=O)NCC(=O)NCC(=O)N[C@@H](CO)C(=O)NCC(=O)NCC(=O)NCC(=O)NCC(=O)N[C@@H](CO)C(=O)N[C@@H](Cc1ccccc1)C(=O)N[C@@H](CC(N)=O)C(=O)N1CCC[C@H]1C(=O)N[C@@H](CCCNC(=N)N)C(=O)N[C@@H](Cc1c[nH]cn1)C(=O)NC(C)(C)C(=O)N[C@@H](CCC(=O)O)C(=O)NCC(=O)N[C@H](C(=O)N[C@@H](Cc1ccccc1)C(=O)N[C@H](C(=O)N[C@@H](CO)C(=O)N[C@@H](CC(=O)O)C(=O)N[C@H](C(=O)N[C@@H](CO)C(=O)N[C@@H](CO)C(=O)N[C@@H](Cc1ccc(O)cc1)C(=O)N[C@@H](CC(C)C)C(=O)N[C@@H](CCC(=O)O)C(=O)NCC(=O)N[C@@H](CCC(N)=O)C(=O)N[C@@H](C)C(=O)N[C@@H](C)C(=O)N[C@@H](CCCCN)C(=O)N[C@@H](CCC(=O)O)C(=O)N[C@@H](Cc1ccccc1)C(=O)N[C@H](C(=O)N[C@@H](C)C(=O)N[C@@H](Cc1c[nH]c2ccccc12)C(=O)N[C@@H](CC(C)C)C(=O)N[C@H](C(=O)N[C@@H](CCCCN)C(=O)NCC(=O)N[C@@H](CCCNC(=N)N)C(=O)NCC(=O)O)C(C)C)[C@@H](C)CC)C(C)C)[C@@H](C)O)[C@@H](C)O, the half-life was 6630 min (refers to: released GLP-1 analogue; rhesus monkey, plasma; subcutaneous, 90 nmol/kg).
With C#CCn1c(C)c(C(=O)C(=O)NC(C)(C)C#C)c(C)c1C(=O)Nc1ccc(F)c(F)c1 the half-life was 28.5 min (mouse liver microsomes; 1 µM, pH 7.4, together with: ritonavir 1 µM).
C[C@@H](O)[C@H](NC(=O)[C@@H]1CCCN1C(=O)[C@H](CO)NC(=O)[C@H](CC1CCCCC1)NC(=O)[C@H](Cc1cccc2ccccc12)NC(=O)[C@H](CNC(=O)c1ccc(F)nc1)NC(=O)[C@H](CO)NC(=O)C1CCNCC1)C(N)=O gave a half-life of 144 min (chemical stability; male human, serum; 1 mM, pH 7.4).
For O[C@H]1CCCN[C@@H]1CCCn1cnc2c(Cl)c(Cl)ccc21, the half-life was 230 min (human, plasma; oral, 100 mg single dose, solution, geometric mean).
For CC(C)C[C@H](NC(=O)[C@H](Cc1cccc2ccccc12)NC(=O)[C@H](CNC(=O)c1ccc(F)nc1)NC(=O)[C@H](CO)NC(=O)C1CCNCC1)C(=O)N[C@@H](CS)C(=O)N1CCC[C@H]1C(=O)N[C@H](C(N)=O)[C@@H](C)O, the half-life was < 30 min (chemical stability; male human, serum; 1 mM, pH 7.4).
For O=c1[nH]c(Cc2ccccn2)nc2c1cnn2C1CCOCC1, the half-life was 79.8 min (male human, plasma; oral, 0.5 mg, single dose).
The half-life of Cn1ccc2cc(-c3cnc4ccc(C(=O)N5CCCCC5)cc4n3)ccc2c1=O is reported as > 240 min (ICR/CD-1 mouse, female, mouse liver S9 fraction; 2 µM, pH 7.5).

Repeated from above:
The half-life of Cn1ccc2cc(-c3cnc4ccc(C(=O)N5CCCCC5)cc4n3)ccc2c1=O is reported as > 240 min (ICR/CD-1 mouse, female, mouse liver S9 fraction; 2 µM, pH 7.5).
